Measurements pooled from the literature.
Each line is one published result; not all experiments were run side by side. ± gives the spread as reported.
Target: 5-hydroxytryptamine receptor 1A (HTR1A, Homo sapiens, UniProt P08908)
UniProt P08908, sequence (whole entry, looked up): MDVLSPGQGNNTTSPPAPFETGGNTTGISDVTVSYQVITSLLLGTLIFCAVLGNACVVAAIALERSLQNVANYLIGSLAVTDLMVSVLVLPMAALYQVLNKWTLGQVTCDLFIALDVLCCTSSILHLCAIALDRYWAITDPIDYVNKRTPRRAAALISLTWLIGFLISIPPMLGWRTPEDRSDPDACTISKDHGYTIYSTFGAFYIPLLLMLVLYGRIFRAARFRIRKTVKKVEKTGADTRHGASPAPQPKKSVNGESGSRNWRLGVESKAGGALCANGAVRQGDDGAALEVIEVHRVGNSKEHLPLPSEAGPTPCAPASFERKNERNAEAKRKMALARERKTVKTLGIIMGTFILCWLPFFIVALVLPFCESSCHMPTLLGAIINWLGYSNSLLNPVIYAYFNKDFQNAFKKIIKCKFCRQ

conditions = 10 µM; inhibition = 99.6 ± 1.8%; Structure (SMILES) = c1cc(N2CCN(CCCOc3ccc(CN4CCOCC4)cc3)CC2)c2ccsc2c1
assay = radioligand binding; conditions = concentration not given, added: [3H]8-OH-DPAT; inhibition = 93.3%; Structure (SMILES) = COc1cc2c(cc1OC)C(=O)N(CCCCN1CCN(c3ccccc3OC)CC1)C2
assay = binding; conditions = 10 µM; inhibition = 12.6%; Structure (SMILES) = CN(C(=O)n1cnc(-c2ccc[n+]([O-])c2)c1)C1CCCCC1
assay = radioligand binding; conditions = concentration not given, added: [3H]8-OH-DPAT; inhibition = 30.4%; Structure (SMILES) = O=C(CN1CCO[C@@H](COc2cccnc2)C1)N1CCc2ccccc21
conditions = 10 µM; inhibition = 18.4%; Structure (SMILES) = CCS(=O)(=O)c1nc(S(=O)(=O)c2ccccc2Cl)c(N2CCN(C)C(=O)[C@H]2C)s1
assay = radioligand binding, PDSP radioligand binding; conditions = 10 µM; inhibition = -26.4%; Structure (SMILES) = O=C(NO)c1ccc(CN2CCCCc3ccccc32)c(F)c1
assay = agonist response, antagonist; test system = human cells; conditions = 10 µM, 5-HT1A antagonist; inhibition = 15%; Structure (SMILES) = COc1cc(Cl)c(C(=O)N[C@@H](CN[C@H]2CC[C@@H](N)CC2)Cc2ccc(C#N)cc2)cc1-c1ccc(CN[C@H](C)c2ccc(C)cc2)o1
assay = radioligand binding; conditions = concentration not given, added: [3H]8-OH-DPAT; inhibition = 47.6%; Structure (SMILES) = O=C(CN1CCO[C@H](COc2ccccc2)C1)N1CCc2ccccc21
assay = radioligand binding, PDSP competition binding; conditions = 10 µM; inhibition = < 50%; Structure (SMILES) = OCCCN1CC[C@@H]2C[C@H]1c1cc(-c3ccc(C(F)(F)F)cc3)ccc12
